{"data": "Measured values from different studies", "note": "A part holds a random share of what one study measured."}
{"data": "Study 1", "target": "Histone acetyltransferase KAT6A, winged helix 1, GST fusion (KAT6A, Homo sapiens, UniProt Q92794, residues 1-85)", "method": "protein binding microarray", "molecule type": "double-stranded DNA, one strand shown", "matrix": "in vitro", "concentration": "not given", "notes": "8-mer, flanks averaged, mean of 2 arrays, mostly near background", "baseline": "not given", "reading": "higher = stronger binding", "Target sequence (chain)": "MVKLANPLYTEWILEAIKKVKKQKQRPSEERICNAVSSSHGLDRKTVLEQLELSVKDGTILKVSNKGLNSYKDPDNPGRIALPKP"}
{"Strand": "TATATGGA", "E-score": -0.172}
{"Strand": "CTTCTGTC", "E-score": -0.101}
{"Strand": "TCCTCCAA", "E-score": -0.198}
{"Strand": "AAAGACGT", "E-score": -0.153}
{"Strand": "AGGGGCGA", "E-score": 0.0961}
{"data": "Study 2", "target": "PABPC1L2, full length, GST fusion (mouse, UniProt A0ABA7IW68)", "method": "RNAcompete", "molecule type": "RNA", "matrix": "in vitro", "concentration": "20 nM", "notes": "7-mer, probes averaged, single round", "baseline": "mean of 7-mers", "reading": "higher = stronger binding", "Target sequence (chain)": "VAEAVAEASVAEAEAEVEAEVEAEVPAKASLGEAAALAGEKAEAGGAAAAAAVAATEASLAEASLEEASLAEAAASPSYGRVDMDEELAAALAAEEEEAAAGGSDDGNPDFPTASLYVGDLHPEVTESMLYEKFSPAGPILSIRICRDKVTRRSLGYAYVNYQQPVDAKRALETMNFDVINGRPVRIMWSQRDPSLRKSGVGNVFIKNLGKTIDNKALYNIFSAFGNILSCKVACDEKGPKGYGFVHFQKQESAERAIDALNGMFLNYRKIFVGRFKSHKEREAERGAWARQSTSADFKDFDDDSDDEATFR"}
{"Strand": "CAACCCG", "7-mer Z-score": -0.217}
{"Strand": "CAGUCGC", "7-mer Z-score": -0.2}
{"Strand": "AUUAGGC", "7-mer Z-score": -0.0246}
{"Strand": "ACCGGGG", "7-mer Z-score": 0.108}
{"Strand": "GAUCGAU", "7-mer Z-score": -0.104}
{"Strand": "AGGUUGU", "7-mer Z-score": -0.3}
{"Strand": "CUUCUCC", "7-mer Z-score": -0.427}
{"Strand": "AAGAUUA", "7-mer Z-score": 0.416}
{"data": "Study 3", "target": "TATA-box-binding protein 1 (TBP1, Arabidopsis thaliana, UniProt P28147, residues 1-200, full length assumed)", "method": "protein-binding microarray", "molecule type": "double-stranded DNA, one strand shown", "matrix": "in vitro", "concentration": "not given", "notes": "k-mer, scored over probes, only values ≥0.25", "reading": "higher = stronger binding", "Residues (chain)": "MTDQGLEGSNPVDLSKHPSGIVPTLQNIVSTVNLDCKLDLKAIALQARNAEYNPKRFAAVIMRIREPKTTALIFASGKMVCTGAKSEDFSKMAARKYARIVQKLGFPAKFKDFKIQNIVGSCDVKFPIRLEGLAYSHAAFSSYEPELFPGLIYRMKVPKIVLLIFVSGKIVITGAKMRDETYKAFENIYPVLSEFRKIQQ"}
{"Strand": "AGCTATA", "E-score": 0.294}
{"Strand": "GAATTAA", "E-score": 0.277}
{"Strand": "ATTATGC", "E-score": 0.307}
{"Strand": "CATTAAG", "E-score": 0.252}
{"Strand": "CGCTTTA", "E-score": 0.285}
{"data": "Single results of other studies"}
{"Molecule": "PhoQ, residues 284 288 289 292 302 303 SMYGEC", "target": "PhoP, residues 12 14 15 18 19 LWHVM (Escherichia coli, UniProt P23836)", "assay": "Sort-seq, refers to: YFP reporter", "system": "E. coli", "setting": "PhoQ-PhoP variant library, with: 10 µM Mg2+", "scale": "baseline: high Mg2+ state, higher = stronger signaling", "measurement": "fold induction", "value": 13.9}
{"note": "Excerpt of the above (study 2):"}
{"Strand": "AUUAGGC", "7-mer Z-score": -0.0246}
{"Strand": "ACCGGGG", "7-mer Z-score": 0.108}
{"Strand": "GAUCGAU", "7-mer Z-score": -0.104}
